# Results pooled from the literature.
# A part holds a random share of what one study measured. Positions count from the first letter of the parent shown.

# Study 1 — technique: RNA Bind-n-Seq; form: RNA; sample: in vitro; tested at: 365 nM; baseline: no-protein control; reading: higher = stronger binding
# Target: RNA binding protein fox-1 homolog 2, RRM domain, GST-SBP tag (RBFOX2, Homo sapiens, UniProt O43251-10, residues 100-194)
# Setting: natural RNA segment, single round, ends assumed
# Residues (chain): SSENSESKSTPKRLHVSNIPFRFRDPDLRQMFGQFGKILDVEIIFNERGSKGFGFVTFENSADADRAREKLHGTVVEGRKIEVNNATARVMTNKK
Oligonucleotide,RBNS enrichment (R)
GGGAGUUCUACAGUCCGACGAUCUUUACUGGGGAAAGUGCAUCUGGCCAAAUGAUAGGAUAGUCAAGCCUAUUGCAACAAAAUUAGGAAGUUUGUUGUAUAAAUAAGCAUGUAAAAGUGCACUUAAAAUGAAUUGGAAUUCUCGGGUGCCAA,3.61
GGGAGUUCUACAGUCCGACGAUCUAGGCACUGAAUUCGUCAACUCUUUUUUGUGAGCCUACUUGUGAAUAUUACCUCAGAUACCUGUUGUCACUCUUCACAGGUUAUUUAAGUUUUUGAAGCUGGGAGGAAAAUGGAAUUCUCGGGUGCCAA,0.347
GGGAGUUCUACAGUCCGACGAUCAGCUCCACUGUUGGCAAAGUCUUGGCAGUGGUACAUUAUUCAUCGUGUUUGCAUUCUUGUUAAUUUUUUUUUUGGCUUUGGAAUGUGACACAGCCUUUUUGAUCAUUUCUUGGAAUUCUCGGGUGCCAA,0.725
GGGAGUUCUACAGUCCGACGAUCCCAAGUAAGGUGUAAGGUUGCAUGUUUCAGUCCUCUACCAUCCUGCACUGUGAGCAGCACUAUACCUGUGCGUUGUCUGAAAGCCUUCCGUAUAUUCUCCAGCUAAAUGGUGGAAUUCUCGGGUGCCAA,12
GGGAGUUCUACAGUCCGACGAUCUUCCAAACUUAAGAAAAUAUUUACUUCUGAUACCCCUGCUGAGGAAAGCGGUCAACUGGAAACUAAAUGGAGCAGCAGCUCCUCUCUGUGGCCAGGGCAUCAGACACAGGUGGAAUUCUCGGGUGCCAA,0.496
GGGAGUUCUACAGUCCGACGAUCGAUCUUUGGAGUGUGGGAAUGGAAGCUGCUUUGAGGCAAAGGCUCAUAAACCCUGCAAGUCUUCAUGGUCUUCUCACCAGCCUUUCCAGCAGGUUCUAGUGCCUUGACCUUGGAAUUCUCGGGUGCCAA,0.382
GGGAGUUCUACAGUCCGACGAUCGGGCGGGGAGGUCUUUUCCCUGCCCAUGUUUUUUUGUGCUUAUUAGAGGUGCAAACAGCGAGCGAUUAAGAACUGUUGGUCAACUGUUACGAGACUAUAAAAGGCUUAGCUGGAAUUCUCGGGUGCCAA,0.292
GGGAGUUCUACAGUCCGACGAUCACUGUCCCUUCUCUUCCUACCUCCAUCCAUGGAAAAUUAGUUAUUUUCUGAUCCUUUCCCCUGCCUGGUCUAGCUCCUCUCCAAACAGCCAUGCCCUCCAAAUGCUAGAGUGGAAUUCUCGGGUGCCAA,1.17

# Study 2 — technique: RNA Bind-n-Seq; form: RNA; sample: in vitro; tested at: 200 nM; setting: whole 134-nt RNA, ends assumed; with: 150 mM KCl; baseline: input library; reading: higher = stronger binding
# Target: Fragile X messenger ribonucleoprotein 1, C-terminal low-complexity region (Fmr1, Mus musculus, UniProt P35922)
Oligonucleotide,log2 enrichment
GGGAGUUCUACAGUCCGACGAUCCCUGUGCUACACAUCGUAUGUACCGAAUCGGGGAAAAAGGGGAAAGGGGUUUUUUUGGGGAAAGUAUUAUGUUACGCCGUUCGGAUCUGCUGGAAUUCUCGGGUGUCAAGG,0.279
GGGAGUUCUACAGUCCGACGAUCGUCCUGUGCUACACAUCGUAUGUACCGAAUCGGGUGGGUUUUUUUGGGUUUUUUUGGGAAAGUAUUAUGUUACGCCGUUCGGAUCUGCACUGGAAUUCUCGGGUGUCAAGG,0.394
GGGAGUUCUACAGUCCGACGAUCGUCCUGUGCUACACAUCGUAUGUACCGAAUCGGCCCCCGGGGCCCCCGGGCCCCCGGGGAAAGUAUUAUGUUACGCCGUUCGGAUCUGCAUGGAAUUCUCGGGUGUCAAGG,-0.899
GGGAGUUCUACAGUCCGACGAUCUCCUGUGCUACACAUCGUAUGUACCGAAUCGGGGUUUUUGGGGUUUGGGGAAAAAGGGGAAAGUAUUAUGUUACGCCGUUCGGAUCUGCAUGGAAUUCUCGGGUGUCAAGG,0.635
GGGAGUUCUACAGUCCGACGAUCACCAUGCAGGUGGGCAUCUUUGGGAAGUGGGGCAAGGGGGGGAUAGGGAGGGGGGUAACACUUUGGGAACAGGUAGUCCCAGGUCGUUUCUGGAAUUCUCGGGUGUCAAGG,0.712
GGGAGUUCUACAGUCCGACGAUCAGUCCUGUGCUACACAUCGUAUGUACCGAAUCAAAUUUUUUUAAAUUUAAAUUUAAAAAAGUAUUAUGUUACGCCGUUCGGAUCUGCACUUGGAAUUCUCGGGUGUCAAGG,-1.42
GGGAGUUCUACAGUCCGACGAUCGCAGGACGUAAAAACAAAUGGAAAUGCUUCGGAUAGUGGCAGGGGUGGGGGUUGCUAAGGAAAGGGUGGGAUGGGAGUGGGUAAAGAGUUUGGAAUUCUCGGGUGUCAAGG,0.959
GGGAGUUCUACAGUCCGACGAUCCAAGUCCUGUGCUACACAUCGUAUGUACCGAAUCGGGUUUGGGUUUGGGUUUGGGAAAGUAUUAUGUUACGCCGUUCGGAUCUGCACUUCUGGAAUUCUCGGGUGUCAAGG,1.2
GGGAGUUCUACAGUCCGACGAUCGGUUUCUGGUGAGCUUCAUGGUUGACGCCCGGGGUGGUUCCAUGAGAGGAAGUCGCCACAACGGCCUGCGAGUGGUGAUCCCGCCACGGAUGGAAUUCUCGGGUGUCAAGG,-2.02

# Study 3 — technique: DHFR PCA, deep sequencing; sample: yeast; with: (+)-ABA 1.4 µM; baseline: wild-type fitted maximum; reading: higher = stronger binding
# Target: ABI1, truncated, D143A, DHFR fusion (Arabidopsis thaliana)
# Setting: methotrexate growth selection, single substitutions
# Starting sequence: PYL1, truncated, DHFR fusion (Arabidopsis thaliana); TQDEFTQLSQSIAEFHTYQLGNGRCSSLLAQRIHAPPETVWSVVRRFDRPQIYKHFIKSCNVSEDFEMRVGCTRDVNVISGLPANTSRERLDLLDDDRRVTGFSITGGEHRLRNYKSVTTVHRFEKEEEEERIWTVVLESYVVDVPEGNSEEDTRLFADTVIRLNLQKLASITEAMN
Variant,relative binding score [%]
D3S,40.5
V118I,52
P36G,5.81
A84I,13.5
C72Q,56.4
S42M,31.6
T120Y,-10.3
A13W,5.77
E89M,-5.04
W134L,60.3
R132C,67.8
F5T,37.1
Q51A,-1.72
L112T,-3.24
D92K,2.23

# Further values, each from its own experiment
Substance,target,test,test system,setting,how to read,endpoint,result
"PhoQ, residues 284 288 289 292 302 303 AGGCYF","PhoP, residues 12 14 15 18 19 VHSCL (Escherichia coli, UniProt P23836)","Sort-seq, refers to: YFP reporter",E. coli,"PhoQ-PhoP variant library, with: 10 µM Mg2+","baseline: high Mg2+ state, higher = stronger signaling",fold induction,2.58

# Repeated from above (study 2):
Oligonucleotide,log2 enrichment
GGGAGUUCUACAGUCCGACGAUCGCAGGACGUAAAAACAAAUGGAAAUGCUUCGGAUAGUGGCAGGGGUGGGGGUUGCUAAGGAAAGGGUGGGAUGGGAGUGGGUAAAGAGUUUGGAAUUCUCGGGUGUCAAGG,0.959
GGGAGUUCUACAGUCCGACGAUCACCAUGCAGGUGGGCAUCUUUGGGAAGUGGGGCAAGGGGGGGAUAGGGAGGGGGGUAACACUUUGGGAACAGGUAGUCCCAGGUCGUUUCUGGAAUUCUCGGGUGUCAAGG,0.712
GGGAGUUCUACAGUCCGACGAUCAGUCCUGUGCUACACAUCGUAUGUACCGAAUCAAAUUUUUUUAAAUUUAAAUUUAAAAAAGUAUUAUGUUACGCCGUUCGGAUCUGCACUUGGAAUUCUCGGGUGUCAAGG,-1.42
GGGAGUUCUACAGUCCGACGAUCUCCUGUGCUACACAUCGUAUGUACCGAAUCGGGGUUUUUGGGGUUUGGGGAAAAAGGGGAAAGUAUUAUGUUACGCCGUUCGGAUCUGCAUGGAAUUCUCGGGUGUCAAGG,0.635
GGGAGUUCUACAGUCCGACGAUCCAAGUCCUGUGCUACACAUCGUAUGUACCGAAUCGGGUUUGGGUUUGGGUUUGGGAAAGUAUUAUGUUACGCCGUUCGGAUCUGCACUUCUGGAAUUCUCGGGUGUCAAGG,1.2
